Measurements gathered from unrelated publications.
Lines come from different studies, so protocols differ. Numbers after ± are the reported error. Values after ≈ are worked out from the molar mass of the structure shown.
BCHE: Cholinesterase (BCHE, Homo sapiens, UniProt P06276)
Sequence of UniProt P06276 (whole entry, looked up): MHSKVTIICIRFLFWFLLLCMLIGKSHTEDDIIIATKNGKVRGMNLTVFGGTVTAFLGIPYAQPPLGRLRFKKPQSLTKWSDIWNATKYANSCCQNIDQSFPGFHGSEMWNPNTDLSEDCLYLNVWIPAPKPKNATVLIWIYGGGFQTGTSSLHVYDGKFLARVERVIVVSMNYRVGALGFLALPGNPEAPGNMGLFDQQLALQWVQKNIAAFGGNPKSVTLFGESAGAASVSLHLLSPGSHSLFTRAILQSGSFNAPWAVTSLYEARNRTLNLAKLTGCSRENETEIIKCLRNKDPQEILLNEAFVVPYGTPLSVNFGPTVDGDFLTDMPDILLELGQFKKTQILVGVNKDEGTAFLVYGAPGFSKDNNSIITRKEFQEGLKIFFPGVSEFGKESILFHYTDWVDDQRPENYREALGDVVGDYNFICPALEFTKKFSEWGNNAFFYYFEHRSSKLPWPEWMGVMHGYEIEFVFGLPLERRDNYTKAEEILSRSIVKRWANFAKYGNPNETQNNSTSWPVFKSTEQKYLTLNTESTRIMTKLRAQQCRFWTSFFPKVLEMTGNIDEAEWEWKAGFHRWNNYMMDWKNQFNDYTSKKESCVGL
Sequence of UniProt Q16891 (whole entry, looked up): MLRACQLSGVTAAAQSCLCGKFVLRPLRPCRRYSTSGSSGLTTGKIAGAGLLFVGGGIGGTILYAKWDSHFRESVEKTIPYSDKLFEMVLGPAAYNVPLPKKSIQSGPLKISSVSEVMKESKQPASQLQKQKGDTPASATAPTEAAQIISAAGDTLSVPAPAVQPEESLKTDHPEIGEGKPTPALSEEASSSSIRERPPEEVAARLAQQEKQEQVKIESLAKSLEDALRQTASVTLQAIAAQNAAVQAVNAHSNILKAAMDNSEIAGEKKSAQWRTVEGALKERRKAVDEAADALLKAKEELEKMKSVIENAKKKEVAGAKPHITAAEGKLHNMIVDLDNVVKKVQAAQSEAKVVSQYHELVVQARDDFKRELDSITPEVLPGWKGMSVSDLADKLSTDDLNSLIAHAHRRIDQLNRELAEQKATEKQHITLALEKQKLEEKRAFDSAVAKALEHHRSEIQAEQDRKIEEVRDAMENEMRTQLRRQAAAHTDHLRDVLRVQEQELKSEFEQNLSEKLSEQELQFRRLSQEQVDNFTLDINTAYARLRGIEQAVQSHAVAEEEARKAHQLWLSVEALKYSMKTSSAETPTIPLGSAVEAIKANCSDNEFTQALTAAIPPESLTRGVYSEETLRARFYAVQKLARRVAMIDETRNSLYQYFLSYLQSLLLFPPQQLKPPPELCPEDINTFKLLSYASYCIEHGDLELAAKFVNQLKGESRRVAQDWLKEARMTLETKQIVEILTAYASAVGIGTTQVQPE

CCNC(=O)N1CCN(CCCC(c2ccc(F)cc2)c2ccc(F)cc2)CC1 — IC50 (Plasmodium falciparum; 3D7): 1000 nM
C[C@@H](O)[C@@H]1NC(=O)[C@H](Cc2ccccc2)NC(=O)[C@@H](Cc2ccccc2)NC(=O)[C@H]([C@@H](C)O)NC(=O)[C@@H](CCCN)NC(=O)[C@H](CCCNC(=N)N)NC(=O)[C@@H](CCCN)NC1=O — IC50 (Acanthamoeba castellanii; trophozoites): > 16 µg/mL
CNC(=O)c1cc(Cl)cc(C)c1NC(=O)c1cc(Br)nn1-c1ncccc1Cl — larval survival (Spodoptera litura; Brassica oleracea field; 25 ppm, 168 h, 5% water-dispersible granule): 21.6%
COC(=O)[C@@H]1[C@H]2C[C@H]3c4[nH]c5ccccc5c4CCN3C[C@@H]2CC[C@@H]1O — IC50 (Plasmodium falciparum; W2): 2000 nM
CC[C@H](C)[C@H](NC(=O)[C@H](C)NC(=O)[C@H](CCCCN)NC(=O)[C@H](CC(C)C)NC(=O)[C@H](C)NC(=O)[C@@H](NC(=O)[C@H](Cc1c[nH]cn1)NC(=O)[C@H](CC(C)C)NC(=O)[C@@H](NC(=O)[C@@H](NC(=O)[C@H](CCCCN)NC(=O)[C@H](C)NC(=O)[C@H](C)NC(=O)[C@H](CO)NC(=O)[C@H](CCCCN)NC(=O)[C@H](Cc1ccccc1)NC(=O)[C@@H](NC(=O)[C@H](CCCCN)NC(=O)[C@H](CC(C)C)NC(=O)[C@H](Cc1ccccc1)NC(=O)[C@H](CO)NC(=O)[C@H](CCCCN)NC(=O)[C@H](Cc1c[nH]c2ccccc12)NC(=O)[C@H](CCCCN)NC(C)=O)[C@@H](C)O)[C@@H](C)O)C(C)C)[C@@H](C)O)C(=O)N[C@@H](CO)C(=O)N[C@@H](CO)C(N)=O — MIC geometric mean (Streptococcus pyogenes; ATCC 13813; 1 strain): 16 µg/mL (≈ 5.45 µM)
COc1ccccc1Cn1ccnc1SCC(=O)Nc1cccc(C(F)(F)F)c1 — EC50 (Plasmodium falciparum; parasite growth, SYBR Green; 3D7 wild type; 72 h): 592 ± 240 nM
C=CCc1ccccc1OCC(O)CNC1(C)CCC(C(C)(C)NC(=O)CBr)CC1 (stereo not shown) — IC50 (Plasmodium falciparum; W2): 794 nM
O=C(Nc1cccc(CN2CCN(C(=O)c3cccc(Cl)c3)CC2)c1)c1ccco1 — EC50 (Plasmodium falciparum; parasite growth, SYBR Green; 3D7 wild type; 72 h): 499 ± 57 nM
CC(C)C[C@@H]1NC(=O)CNC(=O)[C@@H](Cc2ccccc2)NC(=O)[C@H](CCCCN)NC(=O)[C@@H](CCCN)NC(=O)[C@@H](C(C)C)NC1=O — IC50 (Naegleria fowleri; trophozoites): > 16 µg/mL
C[C@H]1CN(c2n[nH]c3nc(N[C@H]4CC[C@H](NS(=O)(=O)CCC(F)(F)F)CC4)ncc23)CCO1 — IC50 (MICOS complex subunit MIC60 (Homo sapiens, UniProt Q16891); biochemical): ≥ 20000 nM
NCCC[C@@H]1NC(=O)[C@@H](CCCN)NC(=O)[C@H](Cc2ccccc2)NC(=O)[C@@H](Cc2ccccc2)NC(=O)[C@H](Cc2ccccc2)NC(=O)[C@@H](CCCN)NC1=O — IC50 (Naegleria fowleri; trophozoites): 5.98 µg/mL
CN(C)CCCC1(c2ccc(F)cc2)OCc2cc(C#N)ccc21 (stereo not shown) — IC50 (Plasmodium falciparum; GB4): 1580 nM
COc1ccc(-n2ccnc2SCC(=O)Nc2cc(C)ccc2C)c(OC)c1 — EC50 (Plasmodium falciparum; parasite growth, SYBR Green; 3D7 wild type; 72 h): 153 ± 77 nM
NCCCC[C@@H]1NC(=O)[C@@H](CCCN)NC(=O)[C@@H](Cc2ccccc2)NC(=O)[C@H](Cc2ccccc2)NC(=O)CNC1=O — IC90 (Acanthamoeba castellanii; trophozoites): > 16 µg/mL
O=C(O)C1=CC(=C(c2ccc(O)c(C(=O)O)c2)c2ccc(O)c(C(=O)O)c2)C=CC1=O — IC50 (Plasmodium falciparum; 7G8): 10000 nM
Cc1ccc(NC(=O)c2cc(S(=O)(=O)NC(C)(C)C)ccc2C)nc1 — EC50 ratio (Plasmodium falciparum; parasite growth, SYBR Green; 72 h; baseline: 3D7-E182D over 3D7): 12
CN(C)CCCN1c2ccccc2Sc2ccccc21 — IC50 (Plasmodium falciparum; GB4): 7940 nM
CCOC(=O)C(=O)c1csc(NC=O)n1 — IC50 (BCHE; inhibitor, fluorometric): 1480 ± 480 nM
CC(=O)Nc1sc(C)c(C)c1CN1CCc2ccccc2C1 — EC50 (Plasmodium falciparum; parasite growth, SYBR Green; 3D7 DHODH E182D; 72 h): 604 ± 39 nM
CC(C)[C@@H]1NC(=O)[C@@H](CCCCN)NC(=O)[C@H](CCCCN)NC(=O)[C@@H](CCCN)NC(=O)[C@H](C)NC(=O)[C@H](Cc2c[nH]c3ccccc23)NC(=O)[C@@H](Cc2ccccc2)NC1=O — IC50 (Acanthamoeba castellanii; trophozoites): 13.6 µg/mL
CCN(CC)CCOCCOC(=O)C1(c2ccccc2)CCCC1 — IC50 (Plasmodium falciparum; GB4): 631 nM
CC(C)[C@@H]1NC(=O)[C@@H](CCCN)NC(=O)[C@H]([C@@H](C)O)NC(=O)[C@H](Cc2ccccc2)NC(=O)[C@@H](Cc2ccccc2)NC(=O)[C@H](Cc2ccccc2)NC(=O)[C@@H](CCCN)NC1=O — IC90 (Acanthamoeba castellanii; trophozoites): > 16 µg/mL
C[C@@H](O)[C@@H](CO)NC(=O)[C@@H](CCCNC(=N)N)NC(=O)[C@@H]1CCCN1C(=O)[C@@H]1CSSC[C@H](NC(=O)[C@H](Cc2ccccc2)NC(=O)CN2CCN(CC(=O)O)CCN(CC(=O)O)CCN(CC(=O)O)CC2)C(=O)N[C@@H](Cc2ccc(O)cc2)C(=O)N[C@@H](Cc2ccccc2)C(=O)N[C@@H](CCC(N)=O)C(=O)N[C@@H](CC(N)=O)C(=O)N1 [gallium-68 labelled] — tissue uptake (healthy Wistar rat, pancreas; intravenous, 8 MBq, 30 min, individual animals): 0.3 %ID/g
Nc1c2c(nc3c1CCC3)CCCC2 — IC50 (BCHE; inhibitor, fluorometric): 250 ± 160 nM
C[C@@H](O)[C@@H]1NC(=O)[C@@H](CCCCN)NC(=O)[C@H](CCCN)NC(=O)[C@@H](CCCN)NC(=O)[C@H](CO)NC(=O)[C@H](Cc2c[nH]c3ccccc23)NC(=O)[C@@H](Cc2c[nH]c3ccccc23)NC1=O — IC90 (Naegleria fowleri; trophozoites): > 16 µg/mL

Excerpt of the above:
CC(C)C[C@@H]1NC(=O)CNC(=O)[C@@H](Cc2ccccc2)NC(=O)[C@H](CCCCN)NC(=O)[C@@H](CCCN)NC(=O)[C@@H](C(C)C)NC1=O — IC50 (Naegleria fowleri; trophozoites): > 16 µg/mL
NCCCC[C@@H]1NC(=O)[C@@H](CCCN)NC(=O)[C@@H](Cc2ccccc2)NC(=O)[C@H](Cc2ccccc2)NC(=O)CNC1=O — IC90 (Acanthamoeba castellanii; trophozoites): > 16 µg/mL
